{"data": "Experimental data pooled from the literature", "note": "Compare with care: the assays were run in different laboratories. “And” joins repeats or separate records; there may be more than shown. Numbers after ± are the reported error. Bridges are numbered along the chain shown (N, C = ends). Where no end group is shown, it is not given here."}
{"Substance": "[123I]c1cncc(OC[C@@H]2CCN2)c1", "assay": "SPECT", "test system": "human, brain cortex", "conditions": "intravenous bolus, 7.35 mCi", "how to read": "relative to: plasma", "quantity": "tissue/plasma ratio", "result": 35.4}
{"Substance": "CC[C@H](C)[C@H](NC(=O)[C@H](CO)NC(=O)[C@H](C)NC(=O)[C@@H](NC(=O)CNC(=O)[C@H](CO)NC(=O)[C@@H](NC(=O)[C@@H](NC(=O)[C@H](Cc1c[nH]cn1)NC(=O)[C@@H]1CCCN1C(=O)[C@@H](NC(=O)[C@H](CC(C)C)NC(=O)[C@H](CO)NC(=O)[C@H](CC(C)C)NC(=O)[C@@H](N)Cc1ccccc1)[C@@H](C)CC)[C@@H](C)CC)C(C)C)C(C)C)C(=O)N[C@@H](C)C(=O)N[C@@H](CCCCN)C(=O)N[C@@H](Cc1c[nH]cn1)C(=O)N[C@@H](Cc1ccccc1)C(N)=O", "assay": "UPLC-MS/MS", "test system": "rat plasma", "conditions": "0.2 µg/mL, 4 h, room temperature, short-term stability", "quantity": "concentration found", "result": "0.189 µg/mL"}
{"Substance": "CC(=O)O[C@H]1C(=O)[C@@]2(C)[C@H]([C@H](OC(=O)c3ccccc3)[C@]3(O)C[C@H](OC(=O)[C@H](O)[C@@H](NC(=O)c4ccccc4)c4ccccc4)C(C)=C1C3(C)C)[C@]1(OC(C)=O)CO[C@@H]1C[C@@H]2O", "test system": "BALB/c mouse, serum", "conditions": "intraperitoneal, 10 mg/kg every three days, 60 days", "quantity": "urea", "result": "126 µmol/L and 93.5 µmol/L and 112 µmol/L"}
{"Substance": "Nc1nc(N)nc(N)n1", "assay": "LC-MS/MS", "test system": "pregnant female rat, serum", "conditions": "oral, 1000 mg/kg/day, 10 days", "quantity": "serum concentration", "result": "89.6 µg/mL and 294 µg/mL and 552 µg/mL and 409 µg/mL and 411 µg/mL"}
{"Substance": "CS(=O)(=O)CCCn1c(Cn2c(=O)n(CC(F)(F)F)c3ccncc32)cc2cc(Cl)ccc21", "test system": "RSV-infected infants", "conditions": "concentration not given, low dose cohorts", "quantity": "patients with low MCH", "result": "17%"}
{"Substance": "Cc1cc(C(C#N)c2ccc(Cl)cc2)c(Cl)cc1NC(=O)c1cc(I)cc(I)c1O (stereo not shown)", "assay": "HPLC, non-compartmental", "test system": "Corriedale lambs, parasitized, plasma", "conditions": "subcutaneous, 5 mg/kg", "quantity": "MRT", "result": "21.9 ± 2.28 days"}
{"Substance": "CC(=O)N[C@H](CCCCNC(=O)C(C)F)C(=O)N[C@@H](CS)C(=O)N[C@@H](CS)C(=O)N[C@@H](CCC(=O)O)C(=O)N[C@@H](Cc1c[nH]cn1)C(=O)N[C@H](Cc1ccccc1)C(=O)N[C@@H](CCCNC(=N)N)C(=O)N[C@@H](Cc1c[nH]c2ccccc12)C(=O)N[C@@H](CS)C(=O)N[C@@H](CCCNC(=N)N)C(=O)N1CCC[C@H]1C(=O)N[C@H](C(N)=O)C(C)C (stereo partly shown) [fluorine-18 labelled]", "test system": "nude mice, A375M xenograft, blood", "conditions": "intravenous, 2 h", "quantity": "tissue uptake", "result": "0.33 ± 0.22 %ID/g"}
{"Substance": "CSCC[C@@H]1NC(=O)[C@H](CC(=O)O)NC(=O)CNC(=O)[C@H](CCCNC(=N)N)NC(=O)[C@H](C)NC(=O)[C@H](CCC(=O)O)NC(=O)[C@H](CCCNC(=N)N)NC(=O)[C@@H]2CSSC[C@@H]3NC(=O)[C@H](CO)NC(=O)[C@H]([C@@H](C)O)NC(=O)[C@@H]4CCCN4C(=O)[C@H](C)NC(=O)[C@H](Cc4c[nH]c5ccccc45)NC(=O)[C@H](CC(=O)O)NC(=O)CNC(=O)[C@H](CCCNC(=N)N)NC(=O)CNC(=O)[C@H](CCC(N)=O)NC(=O)[C@@H]4CCCN4C(=O)[C@@H](NC(=O)CNC(=O)C(C)F)CSSC[C@H](NC(=O)CNC(=O)[C@H](C)NC(=O)[C@H](CC(C)C)NC(=O)[C@H](CSSC[C@@H](C(=O)NCC(N)=O)NC(=O)[C@H]([C@@H](C)O)NC(=O)[C@H](CCCNC(=N)N)NC(=O)[C@@H]4CCCN4C1=O)NC(=O)[C@H](CC(=O)O)NC(=O)[C@H](CO)NC(=O)[C@H](CC(=O)O)NC(=O)[C@H](CCC(N)=O)NC(=O)[C@H](CO)NC3=O)C(=O)N[C@@H](C(C)C)C(=O)N2 (stereo partly shown) [fluorine-18 labelled]", "test system": "nude mice U-87 MG xenograft, kidneys", "conditions": "intravenous, 0.5 h", "quantity": "tissue uptake", "result": "6.98 ± 1.61 %ID/g"}
{"Substance": "CC(=O)C[C@@H](c1ccccc1)c1c(O)c2ccc(O)cc2oc1=O", "assay": "substrate, refers to: 7-hydroxywarfarin 7-glucuronide", "test system": "pooled human liver microsomes", "quantity": "Km", "result": "929 µM"}
{"Substance": "Cc1cc2c(C(C)C)c(O)c(O)c(C=O)c2c(O)c1-c1c(C)cc2c(C(C)C)c(O)c(O)c(C=O)c2c1O", "assay": "HPLC", "test system": "human plasma", "conditions": "24 h, 4 °C", "quantity": "remaining compound", "result": "~74.5%"}
{"Substance": "CC[C@H](C)[C@H](NC(=O)[C@@H](N)CCCNC(=N)N)C(=O)N[C@H](C(=O)N1CCC[C@H]1C(=O)N[C@@H](C)C(N)=O)C(C)C", "test system": "human, plasma", "conditions": "intravenous, 0.15 mg/kg, single dose, healthy volunteers", "quantity": "AUC(0-t)", "result": "41 ng·h/mL"}
{"Substance": "GKWHCTTKFPHHYCLYG (disulfide 5-14 (inferred)) (cyclic, disulfide)", "test system": "male nontransgenic mice, blood", "conditions": "intravenous, 0.5 mg/kg, sulfo-Cy5.5 labelled", "quantity": "blood half-life", "result": "~10 min and 10.1 min"}
{"Substance": "CCNc1nc(Cl)nc(NC(C)C)n1", "assay": "LC-MS/MS", "test system": "herbicide solution", "conditions": "2 h, 23 °C, with: 254 nm UV exposure", "quantity": "remaining amount", "result": "41.8 ± 13.2%"}
{"Substance": "O[C@H]1CCCN[C@@H]1CCCn1cnc2c(Cl)c(Cl)ccc21", "test system": "healthy human volunteers, plasma", "conditions": "oral, 100 mg, day 1, median", "quantity": "Tmax", "result": "150 min"}
{"Substance": "CC1(C)S[C@@H]2[C@H](NC(=O)[C@@H](C(=O)O)c3ccsc3)C(=O)N2[C@H]1C(=O)O", "test system": "rat plasma", "conditions": "8000 ng/mL, three freeze-thaw cycles", "how to read": "relative to: nominal concentration", "quantity": "relative error", "result": "-0.5%"}
{"Substance": "CNC(=O)c1ccc(-c2cnn3ccc(C(=O)N(C)c4ccc(Cl)c(C(=O)OC)c4)cc23)cc1", "test system": "Wistar rats, both sexes, plasma", "conditions": "oral, 50 mg/kg/day, day 14", "quantity": "Tmax", "result": "30 min"}
{"Substance": "N#C[C@]1(CO)O[C@@H](n2cc(F)c3c(N)ncnc32)C[C@@H]1O", "test system": "HBV-infected human-liver-chimeric mice", "conditions": "oral, 1 mg/kg/day, 14 days", "quantity": "body weight change", "result": "no effect"}
{"Substance": "Oc1cc(Cl)c(-c2cc(Cl)ccc2Cl)cc1Cl", "test system": "Sprague-Dawley rat, male, serum", "conditions": "subcutaneous implant, 5% in implant, 28 d, medium dose group", "quantity": "serum concentration", "result": "81 ± 21 ng/g"}
{"Substance": "CN[C@@](C)(C[18F])C(=O)O", "test system": "SCID mouse U87 xenograft, heart", "conditions": "60 min, post injection", "quantity": "tissue uptake", "result": "4.5 ± 1 %ID/g"}
{"Substance": "CC(C)C[C@H](NC(=O)CNC(=O)[C@H](CCCNC(=N)N)NC(=O)[C@@H]1CCCN1C(=O)[C@@H](NC(=O)CNC(=O)[C@H](CCCNC(=N)N)NC(=O)[C@H](CC(C)C)NC(=O)[C@H](CCC(=O)O)NC(=O)[C@H](C)NC(=O)[C@H](CC(C)C)NC(=O)[C@H](CCCNC(=N)N)NC(=O)[C@H](CO)NC(=O)[C@H](CCCNC(=N)N)NC(=O)[C@H](C)NC(=O)[C@H](CCCNC(=N)N)NC(=O)[C@H](CCCNC(=N)N)NC(=O)[C@H](CCCNC(=N)N)NC(=O)[C@H](CCC(N)=O)NC(=O)[C@H](CCCNC(=N)N)NC(=O)[C@H](CCCNC(=N)N)NC(=O)[C@H](CCCCN)NC(=O)[C@H](CCCCN)NC(=O)[C@H](CCCNC(=N)N)NC(=O)CNC(=O)[C@@H](N)Cc1ccc(O)cc1)C(C)C)C(=O)O", "assay": "conditioned place preference", "test system": "rat", "conditions": "intracerebroventricular, 10 µg in 5 µL, 5 pairings, test 24 h after last", "how to read": "relative to: total time", "quantity": "time in drug-paired chamber", "result": "45.7 ± 7.1%"}
{"Substance": "O=C(CC(=O)c1ccccc1)c1ccccc1", "test system": "Sprague-Dawley rat, male, plasma", "conditions": "oral, 10 mg/kg, regular emulsion", "quantity": "absolute bioavailability", "result": "13.6 ± 2.3%"}
{"Substance": "C=C(C)[C@@H]1CCC(C)=C[C@H]1c1c(O)cc(CCCCC)cc1O", "test system": "human, plasma", "conditions": "oral, 100 to 800 mg, high dose", "quantity": "average Cmax", "result": "0.132 ± 0.0825 µg/mL"}
